# Published values gathered from unrelated publications.
# Protocols differ between the studies behind these lines. “And” joins repeats or separate records; there may be more than shown. Numbers after ± are the reported error.
Structure (SMILES),test,test system,setting,tissue uptake
CCCC[C@H](NC(=O)CNC(=O)CNC(=O)CN1CCN(CC(=O)O)CCN(CC(=O)O)CC1)C(=O)N[C@H]1CC(=O)NCCCC[C@@H](C(N)=O)NC(=O)[C@H](Cc2c[nH]c3ccccc23)NC(=O)[C@H](CCCNC(=N)N)NC(=O)[C@@H](Cc2ccccc2)NC(=O)[C@H](Cc2c[nH]cn2)NC1=O [gallium-67 labelled],,"female C57 mice, B16/F1 melanoma, blood","intravenous, 0.037 MBq, 2 h",0.4 ± 0.19 %ID/g
CCCC[C@@H]1NC(=O)[C@@H](NC(=O)[C@H](CCC(=O)O)NC(=O)CNC(=O)CN2CCN(CC(=O)O)CCN(CC(=O)O)CCN(CC(=O)O)CC2)CCCCNC(=O)C[C@@H](C(N)=O)NC(=O)[C@H](C(C)C)NC(=O)[C@@H]2CCCN2C(=O)[C@H](CCCNC(=N)N)NC(=O)CNC(=O)[C@H](Cc2c[nH]c3ccccc23)NC(=O)[C@H](CCCNC(=N)N)NC(=O)[C@@H](Cc2ccccc2)NC(=O)[C@H](Cc2c[nH]cn2)NC(=O)[C@H](CCC(=O)O)NC1=O [gallium-67 labelled],,"C57 mice, B16/F1 flank melanoma, liver","intravenous, 2 h, with: blocking peptide 10 µg",0.29 ± 0.04 %ID/g
O=C([O-])CN1CCN(CC(=O)[O-])CCN(CC(=O)[O-])CCN(CC(=O)[O-])CC1.[64Cu+2],,"healthy athymic nude mice, liver","intravenous, 1 h",1.91 %ID/g
CN1C(=O)[C@@H](Cc2ccc(O)c(I)c2)NC(=O)CNC(=O)[C@H](Cc2ccc3ccccc3c2)NC(=O)[C@H](CCCNC(=N)N)NC(=O)[C@H]1CCCNC(=O)c1ccc(CNC(=O)CN2CCN(CC(=O)O)CCN(CC(=O)O)CCN(CC(=O)O)CC2)cc1 [lutetium-177 labelled],refers to: 177Lu radioactivity,"female CB-17 SCID mice, Daudi xenograft, muscle","intravenous, 0.16 nmol per mouse, 1 h",0.3 ± 0.1 %ID/g
CCCC[C@H](NC(=O)CN1CCC(NC(=O)CN2CCN(CC(=O)O)CCN(CC(=O)O)CCN(CC(=O)O)CC2)CC1)C(=O)N[C@H]1CC(=O)NCCCC[C@@H](C(N)=O)NC(=O)[C@H](Cc2c[nH]c3ccccc23)NC(=O)[C@H](CCCNC(=N)N)NC(=O)[C@@H](Cc2ccccc2)NC(=O)[C@H](Cc2c[nH]cn2)NC1=O [gallium-68 labelled],,"C57BL/6J mice male B16-F10 tumour, blood","1 h post injection, unblocked",0.9 ± 0.5 %ID/g
O=C([O-])CN1CCN(CC(=O)[O-])CCN(CC(=O)NCCc2ccc3c(c2)C2C=CCC2C(c2cc4c(cc2Br)OCO4)N3)CCN(CC(=O)[O-])CC1.[111In+3] (centres unmarked),,"mice with Hec50 tumour xenograft, lungs","2 h, with: G-1 5 µg blocking",1 ± 0.23 %ID/g
CCCC[C@H](NC(=O)CNC(=O)CNC(=O)CN1CCN(CC(=O)O)CCN(CC(=O)O)CCN(CC(=O)O)CC1)C(=O)N[C@H]1CC(=O)NCCCC[C@@H](C(N)=O)NC(=O)[C@H](Cc2c[nH]c3ccccc23)NC(=O)[C@H](CCCNC(=N)N)NC(=O)[C@@H](Cc2ccccc2)NC(=O)[C@H](Cc2c[nH]cn2)NC1=O [gallium-67 labelled],,"female C57 mice, B16/F1 melanoma, bone","intravenous, 0.037 MBq, 24 h",0.72 ± 0.7 %ID/g
CC(C)[C@H](NC(=O)[C@@H]1CCCN1C(=O)[C@H](CCCNC(=N)N)NC(=O)[C@H](CS)NC(=O)[C@H](Cc1c[nH]c2ccccc12)NC(=O)[C@H](CCCNC(=N)N)NC(=O)[C@@H](Cc1ccccc1)NC(=O)[C@H](Cc1c[nH]cn1)NC(=O)[C@H](CCC(=O)O)NC(=O)[C@H](CS)NC(=O)[C@H](CS)NC(=O)[C@@H]1CC(=O)N[C@@H](CCCNC(=N)N)C(=O)NCC(=O)N[C@@H](CC(=O)O)C(=O)N[C@H](Cc2ccc(O)cc2)C(=O)N1)C(N)=O [technetium-99m labelled],,"female mice, B16/F1 melanoma, intestines","intravenous, dose not given, 2 h, with: 10 µg NDP-MSH co-injected",3.86 ± 0.84 %ID
O=C([O-])c1cccc(CN(CCN(Cc2cn(Cc3ccccc3)nn2)Cc2cccc(C(=O)[O-])n2)Cc2cn(Cc3ccccc3)nn2)n1.[64Cu+2],,"healthy athymic nude mice, kidney","intravenous, 1 h",6.84 %ID/g
CC(C)[C@H](NC(=O)[C@@H]1CCCN1C(=O)[C@H](CCCNC(=N)N)NC(=O)[C@H](CS)NC(=O)[C@H](Cc1c[nH]c2ccccc12)NC(=O)[C@H](CCCNC(=N)N)NC(=O)[C@@H](Cc1ccccc1)NC(=O)[C@H](Cc1c[nH]cn1)NC(=O)[C@H](CCC(=O)O)NC(=O)[C@H](CS)NC(=O)[C@H](CS)NC(=O)CNC(=O)[C@@H]1CC(=O)N[C@@H](CCCNC(=N)N)C(=O)NCC(=O)N[C@@H](CC(=O)O)C(=O)N[C@H](Cc2ccc(O)cc2)C(=O)N1)C(N)=O [technetium-99m labelled],,"C57 mice B16/F1 melanoma female, muscle","iv, 2 h, with: NDP-MSH 10 µg co-injected",0.43 ± 0.29 %ID/g
NC12CNCCNCC(NCc3ccc(CNC(=O)CCCC(=O)NCc4ccc(-c5nncnn5)cc4)cc3)(CNCCNC1)CNCCNC2.[64Cu+2],,"athymic nude mice SW1222 xenograft, kidney","12 h post injection, 24 h accumulation interval, with: huA33-TCO pretargeting",1.9 %ID/g and 1.87 %ID/g

# For quick reference, copied from above:
Structure (SMILES),test,test system,setting,tissue uptake
NC12CNCCNCC(NCc3ccc(CNC(=O)CCCC(=O)NCc4ccc(-c5nncnn5)cc4)cc3)(CNCCNC1)CNCCNC2.[64Cu+2],,"athymic nude mice SW1222 xenograft, kidney","12 h post injection, 24 h accumulation interval, with: huA33-TCO pretargeting",1.9 %ID/g and 1.87 %ID/g
